Assay results gathered from unrelated publications.
Each numbered part is a random draw from the data of one study; scales do not carry over between parts. Positions count from the first letter of the parent shown.

Sample 1
Target: ABI1, truncated, D143A, DHFR fusion (Arabidopsis thaliana)
Technique: DHFR PCA, deep sequencing
Matrix: yeast
Notes: methotrexate growth selection, single substitutions
With: (+)-ABA 0.0091 µM
Reference: wild-type fitted maximum
Direction: higher = stronger binding
Starting sequence: PYL1, truncated, DHFR fusion (Arabidopsis thaliana); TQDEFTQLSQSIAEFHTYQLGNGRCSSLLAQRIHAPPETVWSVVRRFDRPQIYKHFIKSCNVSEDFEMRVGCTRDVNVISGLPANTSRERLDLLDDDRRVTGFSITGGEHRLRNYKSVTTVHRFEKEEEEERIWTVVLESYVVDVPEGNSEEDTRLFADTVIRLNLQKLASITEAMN; partner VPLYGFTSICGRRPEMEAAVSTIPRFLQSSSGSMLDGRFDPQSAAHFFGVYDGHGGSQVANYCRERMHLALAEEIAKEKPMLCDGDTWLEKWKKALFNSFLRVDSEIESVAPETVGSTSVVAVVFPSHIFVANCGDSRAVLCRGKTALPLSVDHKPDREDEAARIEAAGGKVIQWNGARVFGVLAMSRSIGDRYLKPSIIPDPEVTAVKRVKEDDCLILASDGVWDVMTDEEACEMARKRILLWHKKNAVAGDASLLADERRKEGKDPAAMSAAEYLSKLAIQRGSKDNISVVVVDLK
Variant | relative binding score
T39R | 17.4%
G107M | -0.158%
S117A | 2.21%
Q2P | 71.1%
W41E | -6.59%
T101I | 87.2%
F56V | -1.89%
F56G | 2.88%
K168Q | 6.44%
L169D | -4.15%
G21R | 21.5%
Y18M | 1.61%
S26A | 27.2%
E152R | 1.69%
N85Q | 56.6%
A30T | 7.02%
D96V | 2.42%

Sample 2
Target: CCNB1, cyclin fold, Cln2 fusion (human)
Technique: yeast growth competition, sequencing
Matrix: yeast
Notes: weak parent motif
Reference: not given
Direction: higher = stronger binding
Starting sequence: CDC6 docking peptide (human); TLKGRRLVFDNQL
Variant | normalised enrichment score
L7Q | 0.847
T1I | 0.26
R6H | 0.221
N11W | 1.18
N11I | -0.377
L13N | 0.0703
G4E | -0.48
L13S | 0.649
N11Y | 0.307
R5P | -0.00256
R6A | 0.117
N11E | 0.299
L13T | -0.354
V8I | 0.425
V8P | 0.11
R6D | -0.435
D10P | -0.365
T1W | 1.11
V8L | 0.941
Q12A | 0.513
R5K F9L | 0.385
L7A | 0.422
V8E | 0.392
V8N | 0.797
L7H | 0.128

Sample 3
Target: RNA binding protein fox-1 homolog 2, RRM domain, GST-SBP tag (RBFOX2, Homo sapiens, UniProt O43251-10, residues 100-194)
Technique: RNA Bind-n-Seq
Form: RNA
Matrix: in vitro
Tested at: 365 nM
Notes: natural RNA segment, single round, ends assumed
Reference: no-protein control
Direction: higher = stronger binding
Target sequence (chain): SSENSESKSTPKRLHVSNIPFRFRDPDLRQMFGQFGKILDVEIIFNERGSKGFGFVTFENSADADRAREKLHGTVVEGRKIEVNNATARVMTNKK
Sequence | RBNS enrichment (R)
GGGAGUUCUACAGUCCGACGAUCCAAAACAAAUCAAUCGGGAGGGGACCACUGAGAAAGAGGUAACAGUUAUUAAAGGAUGUUUUUGCAACUCUGGAGUGCCUGGGUAGUUGCAUUCUGAAGAGGGUGUCCCCUGGAAUUCUCGGGUGCCAA | 0.654
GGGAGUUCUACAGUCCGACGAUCCUAGUUAUUAAAUGCACUAAACAAACAACUGCAUUUAAAGCAUUGGCCUUAGCAGAAGUGACUGACUUAAAGUGUUUUAGUUUCUUACUGAUGAGUGAAUUCAGUUCCCUUGGAAUUCUCGGGUGCCAA | 0.27
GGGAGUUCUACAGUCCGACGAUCCUCGGUACAAAGGGAAAACACUGAAUUGGCCCCAAAACACAGGAGCAAGCGUGUGGAUUUCCAUUGCAGAGCCCCUGUUUCAGGAUGCAAGAGUUUUCCAGCCCAAGGCAUGGAAUUCUCGGGUGCCAA | 0.477
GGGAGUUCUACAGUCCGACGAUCCCGGCCCCCUCAUCACAAUCAGCUUUGAAGUCUGUAUUUUUUUAUAAUAAAAUGGACAAACUGUUAAGCGUGGGCCUCUCUGUUACAGGUGUGCUAGAUUUCCGACAGAGUGGAAUUCUCGGGUGCCAA | 0.396
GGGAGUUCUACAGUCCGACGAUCAGCCCCUGUCAUGGUGUCCAGACAGAGCCCUGUGAGGCUGGGUCCAAUUGUGGCACUUGGGGCACCUUGCUCCUCCUUCUGCUGCUGCCCCCACCUCUGCUGCCUCCCUCUGGAAUUCUCGGGUGCCAA | 0.377
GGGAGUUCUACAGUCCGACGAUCUCAGGCUCUGGGCAGCAGGUGUCAGGCUGCUCCUAUCAGUGAGUGGGGCCACUGCUGAUAUUUGGCCUCUGCACAAGUGUGAGUGAAGAGAAAGAUUGGAAGCAGCUGCUUGGAAUUCUCGGGUGCCAA | 0.869
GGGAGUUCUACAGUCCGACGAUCAGAAGGGAGUGAUGUUCUUACUCUGGUGGUCUGUGCUUCUGAACACAGGCUACAUGCACACACUGACAACUACCAAUAAACAGACAGGGGAAGGUCUUUCAUCUCAGCCAUGGAAUUCUCGGGUGCCAA | 0.657
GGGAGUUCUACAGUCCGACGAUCUUGGUGCUUUGUUUAUGGUAGUAGUUUUUCUGUAACACAGAAUAUAGGAUAAGAAAUAAGAAUAAAGUACCUUGACUUUGUUCACAGCAUGUAGGGUGAUGAGCACUCACUGGAAUUCUCGGGUGCCAA | 14.9
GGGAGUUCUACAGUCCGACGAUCAAGAAGGAUACUGUGUAGUUGAACUAAGGCUCUUUCCAGGCCGGGCUUGCAUCCUGUUGUGUAUUCUUUGUAUGCUGCUGACUAUAUCCCUAUUCUGCUGUAGGGGACUAUGGAAUUCUCGGGUGCCAA | 1.25
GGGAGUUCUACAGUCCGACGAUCCUUGAUGUUAUGCAGGAAGUACAAAAGUACUUUAAAAUUUUGUUAUGAAAUAAAAAAAAAAAGGAUGGGUUUUGUAAAAAUAAUAAAAAAAAUAUUUUUAGCAGAACAGGUGGAAUUCUCGGGUGCCAA | 9.76
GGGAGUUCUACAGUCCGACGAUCAGAAAGCACAGUGGACGGGUUGUGUUUGUCCCAGCCCUCUCUGUAGGCUGAGCAGUGCAGCGGCGCCCACAGGUUUACACACAAGUUUGGUUUGGUUUCUUCUGUUCUGCUGGAAUUCUCGGGUGCCAA | 0.313
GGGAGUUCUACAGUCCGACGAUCACCUCCAGCUGACCAUGCAUGCCACGUGGCUGGCUGGGUCCUCUGCCCUCUCUGGAGUUUGCCUCCCCCAGCCCCCUCCCCAUCAAUAAAACUCUGUUUACAACCACCGGUGGAAUUCUCGGGUGCCAA | 3.43

Sample 4
Target: Interferon regulatory factor 3, full length, phosphomimetic (IRF3, Homo sapiens, UniProt Q14653, residues 1-427, S386D/S396D/S398D/S402D/T404D/S405D)
Technique: protein-binding microarray
Form: double-stranded DNA, one strand shown
Matrix: in vitro
Tested at: 2540 nM top
Notes: 60-bp whole probe
With: salmon DNA 0.4 mg/ml
Reference: random background probes
Direction: higher = stronger binding
All sequences stand within: GCCTAGCAC … GTCTTGATTCGCTTGACGCTGCTG
Residues (chain): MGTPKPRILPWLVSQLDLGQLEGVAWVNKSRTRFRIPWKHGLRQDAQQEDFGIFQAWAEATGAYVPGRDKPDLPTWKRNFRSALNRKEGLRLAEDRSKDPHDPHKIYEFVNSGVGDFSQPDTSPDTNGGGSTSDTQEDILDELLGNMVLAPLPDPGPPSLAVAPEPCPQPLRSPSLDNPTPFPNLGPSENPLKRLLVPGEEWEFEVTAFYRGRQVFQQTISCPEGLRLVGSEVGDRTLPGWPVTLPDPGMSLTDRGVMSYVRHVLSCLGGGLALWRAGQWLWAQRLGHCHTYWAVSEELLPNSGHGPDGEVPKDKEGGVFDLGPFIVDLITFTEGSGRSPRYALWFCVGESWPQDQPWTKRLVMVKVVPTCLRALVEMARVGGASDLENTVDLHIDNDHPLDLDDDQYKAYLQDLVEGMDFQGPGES
Sequence | fitted relative affinity [z-score]
TTAGGTCTCGGTCTTGGTTAGTGCTAG | 0.662
TTACAGATGTTTTTCATTTTGTGCTAG | 1.17
TTAGGTCTGCTTATCCTTTAGTGCTAG | 0.0465
TGGGACCAGCACAGACAGTCGTGCTAG | -0.812
GACGGTCTACTACTGCTGACGTGCTAG | -0.119
GACGATATCAGTTGCGAGACGTGCTAG | 0.68
TTAGATTTCCTTTCCCTTTAGTGCTAG | 7.16
TCAGTCATCGATTTCTTACTGTGCTAG | 0.391
GACGCTTTCCTACTGCTGACGTGCTAG | 3.04
TTAGAACTCAGTATCGATTAGTGCTAG | 0.677
TTAGGACTGCTACTGCTCTAGTGCTAG | -0.499
TTAGATCTCAGCCTCGATTAGTGCTAG | -0.351
GACGGTCTCCTCATCCTGACGTGCTAG | 0.746
AACGGTATCGGGTTTCGGGACGTGCTA | 3.05
ATAACACTCTTCTTTTGCTAAGTGCTA | 0.857
GACAATCTCAGTTTCGAGACGTGCTAG | 2.76
CACACCCGGCTCCTCTGCCAGTGCTAG | -0.0239

Sample 5
Target: Sal-like protein 4, full length isoform A (SALL4, Homo sapiens, UniProt Q9UJQ4, residues 1-1053)
Chain of UniProt Q9UJQ4 (whole entry, looked up): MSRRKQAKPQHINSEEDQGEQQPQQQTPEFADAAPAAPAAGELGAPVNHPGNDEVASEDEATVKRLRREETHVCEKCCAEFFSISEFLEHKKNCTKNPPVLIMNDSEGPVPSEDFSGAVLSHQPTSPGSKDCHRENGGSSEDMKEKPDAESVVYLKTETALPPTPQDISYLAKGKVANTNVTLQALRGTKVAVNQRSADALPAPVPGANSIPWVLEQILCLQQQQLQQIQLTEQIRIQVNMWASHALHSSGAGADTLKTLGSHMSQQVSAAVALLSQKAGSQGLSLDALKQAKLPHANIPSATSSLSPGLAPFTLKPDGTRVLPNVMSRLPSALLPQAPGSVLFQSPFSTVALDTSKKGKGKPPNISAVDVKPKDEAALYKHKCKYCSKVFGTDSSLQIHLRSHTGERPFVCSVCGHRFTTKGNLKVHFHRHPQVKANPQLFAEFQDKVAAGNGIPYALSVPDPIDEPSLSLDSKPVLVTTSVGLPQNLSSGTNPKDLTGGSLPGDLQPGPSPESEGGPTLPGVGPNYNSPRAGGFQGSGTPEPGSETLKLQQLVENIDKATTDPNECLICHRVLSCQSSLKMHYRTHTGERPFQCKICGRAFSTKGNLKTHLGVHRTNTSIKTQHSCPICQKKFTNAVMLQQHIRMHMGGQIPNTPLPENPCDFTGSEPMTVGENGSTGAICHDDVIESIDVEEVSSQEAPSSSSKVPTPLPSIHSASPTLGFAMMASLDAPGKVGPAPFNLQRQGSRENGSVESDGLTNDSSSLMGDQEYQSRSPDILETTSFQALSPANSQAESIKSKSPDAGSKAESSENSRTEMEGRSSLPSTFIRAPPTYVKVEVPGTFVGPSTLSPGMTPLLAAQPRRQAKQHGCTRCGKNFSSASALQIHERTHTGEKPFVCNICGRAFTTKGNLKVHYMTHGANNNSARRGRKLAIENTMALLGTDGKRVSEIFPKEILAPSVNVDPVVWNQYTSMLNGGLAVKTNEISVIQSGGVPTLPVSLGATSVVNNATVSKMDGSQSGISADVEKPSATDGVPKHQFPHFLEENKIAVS
Technique: universal PBM
Form: double-stranded DNA, one strand shown
Matrix: in vitro
Tested at: 600 nM
Notes: 8-mer, flanks averaged, mean of replicates
Direction: higher = stronger binding
Sequence | E-score
CATTTAAC | 0.214
CGAAGCTC | -0.295
GAGATGCC | -0.218
ACGTTGCG | -0.0477
CTACCACA | 0.119
TCTCCCCA | -0.187
ACGAATTA | 0.143
GAAGGTTA | 0.0627
TGTCTGAA | 0.0504
ACTTAAAA | 0.245
CCATTAGG | -0.0521
CCGTTAGC | -0.155
ATAGTCCA | 0.11
GGCCTGGA | -0.336
CACCAGTG | -0.187
GAGTATAC | 0.14
AAATAGTA | 0.325

Sample 6
Target: CREB5, bZIP domain (human)
Technique: DHFR protein complementation
Matrix: yeast
Notes: single substitutions, most at no-binding floor
Reference: wild-type JUN-FOS pair
Direction: higher = stronger binding
Starting sequence: JUN, bZIP domain (human); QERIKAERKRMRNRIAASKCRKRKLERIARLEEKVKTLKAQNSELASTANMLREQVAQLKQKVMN; partner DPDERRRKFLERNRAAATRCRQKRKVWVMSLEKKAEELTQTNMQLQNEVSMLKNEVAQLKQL
Variant | binding fitness
Q58R | -0.479 natural log
K39M | -0.326 natural log
A57G | -0.478 natural log
N50D | -0.196 natural log
K34I | -0.439 natural log
M51K | -0.255 natural log
E32R | -0.288 natural log
S47R | -0.203 natural log
S43D | -0.123 natural log
L38M | -0.825 natural log
Q55Y | -0.628 natural log
M51N | -0.253 natural log
L45T | -1.36 natural log
E54C | -0.652 natural log
E33V | -0.688 natural log
R53L | -1.19 natural log
T37Q | -0.0612 natural log
S47C | -0.29 natural log
Q41I | -0.408 natural log
E32G | -0.812 natural log
T37S | -0.274 natural log
L59F | -1.12 natural log
A49T | -0.97 natural log
A49G | -1.16 natural log
L45W | -1.18 natural log

Mixed results
Substance | target | test | system | conditions | scale | quantity | value
PhoQ, residues 284 288 289 292 302 303 AGCYAI | PhoP, residues 12 14 15 18 19 LHHSG (Escherichia coli, UniProt P23836) | Sort-seq, measured: YFP reporter | E. coli | PhoQ-PhoP variant library, with: 10 µM Mg2+ | reference: high Mg2+ state, higher = stronger signaling | fold induction | 2.64

Repeated from above (sample 4):
Sequence | fitted relative affinity [z-score]
GACGGTCTCCTCATCCTGACGTGCTAG | 0.746
TTAGATTTCCTTTCCCTTTAGTGCTAG | 7.16
GACGCTTTCCTACTGCTGACGTGCTAG | 3.04
TCAGTCATCGATTTCTTACTGTGCTAG | 0.391
TTAGATCTCAGCCTCGATTAGTGCTAG | -0.351
TGGGACCAGCACAGACAGTCGTGCTAG | -0.812
CACACCCGGCTCCTCTGCCAGTGCTAG | -0.0239
TTAGGACTGCTACTGCTCTAGTGCTAG | -0.499
TTAGGTCTCGGTCTTGGTTAGTGCTAG | 0.662
GACGGTCTACTACTGCTGACGTGCTAG | -0.119
